Results pooled from the literature.
Numbered parts are unrelated; each lists some results of a single study. Changes are numbered by the printed parent chain.

Block 1
Target: RNA binding protein fox-1 homolog 2, RRM domain, GST-SBP tag (RBFOX2, Homo sapiens, UniProt O43251-10, residues 100-194)
Method: RNA Bind-n-Seq
Form: RNA
Medium: in vitro
Concentration: 365 nM
Setting: natural RNA segment, single round, ends assumed
Reference: no-protein control
Reading: higher = stronger binding
Endpoint: RBNS enrichment (R)
Shared flanks, not repeated: GGGAGUUCUACAGUCCGACGAUC … UGGAAUUCUCGGGUGCCAA
Construct (chain): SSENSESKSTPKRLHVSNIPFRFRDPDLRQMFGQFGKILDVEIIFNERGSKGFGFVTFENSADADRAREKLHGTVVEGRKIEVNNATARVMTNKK
CACCAUGGCCGAGCUUCAUGUCACAUGGCCUGGCGAUUGUGCUUGUUCACACUGGGGCCAGGAUUUUCAUACUAAAACGUCACUGACAAUGGGGCUACUUUUCUCCUGAA: 0.316
UGUGUAUAUAGUAUUCUCGAGAUGAGCGUAUGUGUGUCUGUUUAAAAGUCACCUUGUUUCCUACAUGAUUUUAGUCAUACCCAAACGUCCUCAGAAUCCCUACAUCCUGC: 0.301
ACGCAAGGACAGGGUACAAACUUAGCUGGAAGUCUGCCCAGGCUGAAUGAUCUCUUCCCUAGAGUUGAUUGUCGGGUACACAGUGUGAACCCCCGAAGACGGAACCUCAC: 0.606
UGGCUCAGCACAUUGACAUCACUAACUAGGGUUGGGAUAGCUUCCUACCCAGAUGACCAAAAAGCCAGUGGAAACAGUUAAGCCCCUCCAUAUCAGGCUUACCAAGAAUA: 0.335
GUUUGAAAAUGAAGGACUGCCUUGCCAGGAACCCAGUCGGGACUGUGGAGAAAAGAUUUGACUGAUAGAUGUUGGGACUUAGGCAAAGCUUUUGAAAGGCCUCUAACCUA: 1.22
UCGCCACAGCCUACAUAGUGUCUUCCACCUAAUAGAACUUCGAGCCAGAAAGGGGCAUGAGGGCUCUUGCGAGACUGAAGUGCUAUCUUCUCUGGACUAGAGAGAAGAGG: 0.569
GAGAUGUUUUUGUUGCAUUGUGUUCUCAUAGCCUAUGCACAUCCUUAUGUUCUUCUAAGUAAUGCCUAUGACCCAAUGCAACUAGGCAGUAAGUAUCCACGACUCCAACC: 0.35
UGAGGAGGCAGGCGGCUGCUAGUUGUGGCCCUUCCUGGAAGGAGAGGCCUGCAGGGCUCGACCCUGUGGGUUUCUGUCCCCAGGGAGCAGACUGUGCGGCACCCAGGCCC: 0.26

Block 2
Target: Centromere-binding protein 1, full length, His-tagged (CBF1, Saccharomyces cerevisiae, UniProt P17106, residues 1-351)
UniProt P17106, sequence (whole entry, looked up): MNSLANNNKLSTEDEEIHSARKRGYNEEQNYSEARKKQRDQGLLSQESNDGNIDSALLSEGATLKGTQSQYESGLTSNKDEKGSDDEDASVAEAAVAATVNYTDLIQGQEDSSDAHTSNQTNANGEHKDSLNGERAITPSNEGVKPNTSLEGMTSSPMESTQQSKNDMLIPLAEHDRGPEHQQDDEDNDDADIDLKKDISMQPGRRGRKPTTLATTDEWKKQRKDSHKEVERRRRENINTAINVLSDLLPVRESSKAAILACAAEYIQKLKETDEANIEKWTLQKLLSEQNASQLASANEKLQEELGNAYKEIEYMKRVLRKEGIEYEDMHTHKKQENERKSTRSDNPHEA
Method: competition protein-binding microarray
Form: double-stranded DNA, one strand shown
Medium: in vitro
Concentration: 2 µM
Setting: whole 60-bp probe, lowest competitor level
Together with: Pho4 competitor, 0.05 µM
Reading: higher = stronger binding
Endpoint: fluorescence intensity
Shared flanks, not repeated: … GTCTTGATTCGCTTGACGCTGCTG
CATACCCAACCTTGATAGGTGGGTGAAGATATTTGT: 56.6 a.u.
AAAGCGGTAATTTGTCACGCGACTTCACATATCTAT: 885 a.u.
AAATTACTAAGTTGTCACTCAACTTACCCCGTATGA: 68.5 a.u.
TCTCTTTTGCATCGAAACGTGGGTAGATCGTACCGG: 89.6 a.u.
AATGTGGGAATGTCGCACACGCTAATGTGGAATTGG: 84.6 a.u.
AAGAGCAAGTTGTTACACGTGTGAATCTGGCACATT: 756 a.u.
CTAACGAAGGTTTGTCACAGGACTTACAAGCCAAGT: 90.7 a.u.
GAACCAGAGATGTTCCACGTGAAATATTACCAACCA: 776 a.u.
CCATTCCAACCAATGGATGTGACGCTCCAAGAGAAA: 51.4 a.u.
CTAACGAAGGTTTGTCACTACACTTACAAGCCAAGT: 91.9 a.u.
AAAAGCATTCTTTGTCACGTGCCAGGGTTTGCTCCT: 7300 a.u.
GGAGCAAATAGTTGAAAGGTGTGCCATAAGAAGGTG: 78.2 a.u.
GGTAAGAAGGTCGCTAGCATGACGCCAGCTCCAAAA: 58.1 a.u.
TCTAATGTTATTCGTCACGTCGATCTGACATATATC: 162 a.u.
AAATTACTAAGTTGTCACCGCACTTACCCCGTATGA: 75.7 a.u.
CTTCTGTAAATTTGATCAGTGGGTGGACGCGCCCCG: 76.4 a.u.
TTGTTTCATCCAGGGTACGTGGCCGCACTTGTCAAT: 58.2 a.u.
CGCGTTTCTTTGTTCCACGTGCTAAGCGCCTCTCTT: 846 a.u.
CATACCCAACCTTTTCACGTGTACTAAGATATTTGT: 1150 a.u.

Block 3
Target: ABI1, truncated, D143A, DHFR fusion (Arabidopsis thaliana)
Method: DHFR PCA, deep sequencing
Medium: yeast
Setting: methotrexate growth selection, single substitutions
Together with: (+)-ABA 2500 µM
Reference: wild-type fitted maximum
Reading: higher = stronger binding
Endpoint: relative binding score
Starting sequence: PYL1, truncated, DHFR fusion (Arabidopsis thaliana); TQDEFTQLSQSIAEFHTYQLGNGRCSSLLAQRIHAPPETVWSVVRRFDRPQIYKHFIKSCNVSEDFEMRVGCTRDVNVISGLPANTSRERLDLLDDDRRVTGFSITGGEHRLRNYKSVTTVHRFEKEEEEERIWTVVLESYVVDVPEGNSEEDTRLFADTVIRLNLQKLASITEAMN; partner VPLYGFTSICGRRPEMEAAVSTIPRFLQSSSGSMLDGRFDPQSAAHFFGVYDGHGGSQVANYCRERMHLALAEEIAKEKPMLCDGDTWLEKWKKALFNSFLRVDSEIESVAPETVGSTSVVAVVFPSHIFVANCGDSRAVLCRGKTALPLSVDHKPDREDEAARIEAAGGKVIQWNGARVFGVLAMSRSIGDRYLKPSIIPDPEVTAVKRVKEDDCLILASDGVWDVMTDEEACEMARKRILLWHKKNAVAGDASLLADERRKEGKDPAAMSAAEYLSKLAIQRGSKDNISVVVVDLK
A170R: 97.9%
G102H: 26.9%
S80E: 63.8%
T160E: 76.4%
F157E: 4.22%
L169R: 0.968%
L156M: 99.9%
Q167G: 95.3%
L91P: 3.46%
L82I: 98.8%
A158W: -3.86%
V70Q: 91.3%
M176R: 102%
L82V: 93.7%
V142M: 93.5%
Y115F: 104%
V137A: 82.8%
G102I: 76.5%
A158N: 90.7%
R132L: 104%
I172L: 93.5%
V143T: 96%
T6S: 105%

Block 4
Target: RING finger protein unkempt homolog, zinc fingers 1-6, GST-SBP tag (UNK, Homo sapiens, UniProt Q9C0B0, residues 30-357)
UniProt Q9C0B0, sequence (30-357, looked up): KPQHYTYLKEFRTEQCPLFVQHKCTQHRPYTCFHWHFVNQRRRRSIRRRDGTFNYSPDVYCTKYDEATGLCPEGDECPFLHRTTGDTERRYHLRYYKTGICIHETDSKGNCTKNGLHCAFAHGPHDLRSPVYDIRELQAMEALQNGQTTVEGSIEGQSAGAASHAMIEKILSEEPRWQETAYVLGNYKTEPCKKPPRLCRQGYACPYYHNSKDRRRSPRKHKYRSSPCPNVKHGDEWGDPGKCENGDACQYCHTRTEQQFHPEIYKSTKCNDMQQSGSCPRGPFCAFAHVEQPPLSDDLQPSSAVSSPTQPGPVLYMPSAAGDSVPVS
Method: RNA Bind-n-Seq
Form: RNA
Medium: in vitro
Concentration: not given
Setting: RNA with constant flanks, human and mouse sites, ends assumed
Reference: input RNA pool
Reading: higher = stronger binding
Endpoint: bound/input enrichment
Shared flanks, not repeated: GGGAGUUCUACAGUCCGACGAUC … CAACAGAGGAUUGAGCAUCA
GACAUUUGGACCUUGUUGGGAACAGUGCUUUAUCCAUUCCUUGCCAUCUGGAGAUUAAUUAGCAAUUUCUUGUUUAGUAAUCCGCCUCCCACACAGACUUCAGUGAGAGUAACAUCGUCA: 3.57 ratio
GAGCAGUCCUUGGAAACUGCGAAAGCAGUGAAGGAACGCUACAGUUAUGUCUGCCCAGAUUUAGUAAAAGAGUUUAACAAGUAUGACACCGAUGGGUCAAAGUGGAUCAAACAGUACACC: 1.32 ratio
GCUCAGUUGCUUACAGGUUUGUGACAAGAAGUGAGAACAUUUUGGAGAAGGCAACAACAUACCUAAUACUUUGUUUUCACUGAUUUAUAAACAUUAUACAUUAACCAUCACGACUGUAUG: 0.152 ratio
GUUAAUCAUGAUUCAGAAGAUCUAGCUUCACCCUCUGAGUAUCCAGAAAAUGGAGAAAGAUUUAGCUUCCUGAGCAAACCUGUUGAUGAGAACAAUCAGCAGGAUGGAGAAGAUGACUCU: 0.13 ratio
GAGAAGGAAUGGAAACUAGGCCGGUGCAUUUUACGGUUCCCUGAGAUUCUGCAAAAGAUUUUAGAUGACUUAUUUCUCCACACUCUCUGUGAUUAUAUAUAUGAGCUGGCAACUGCUUUC: 0.446 ratio
AGCAUUUUUUCCUGUUAACUUUAUAUUACAAAAUCCGUUCUACCAUAACAAUACAGAGGAACUAGCUGUGUUACUGCACCAGUGUUAUAGGUAACUUCAGUAUAUUAUGAACAAAUCAAA: 0.687 ratio
GUUAUCAAGUUCGAUACAGAGGAGGAGGCUAUAGCAAUCGCUAACGCAGCUGAUGUUGGGUUAGCAGGUUAUUUUUACUCUCAAGACCCAGCCCAGAUCUGGAGAGUGGCAGAGCAGCUG: 0.168 ratio
AACAGGACAGCCUGGUGCCCCAUUACACUCUGUAGGAGUUAUGCAAUUCAGAAGUGGAAUUUAGGAAAUCAUUUAUUUUGAUGUGUCAAUAGAGAGAUUUAUUGUCUGUAAAUUUGGAUG: 7.53 ratio

Some of these lines once more (block 1):
UGGCUCAGCACAUUGACAUCACUAACUAGGGUUGGGAUAGCUUCCUACCCAGAUGACCAAAAAGCCAGUGGAAACAGUUAAGCCCCUCCAUAUCAGGCUUACCAAGAAUA: 0.335
CACCAUGGCCGAGCUUCAUGUCACAUGGCCUGGCGAUUGUGCUUGUUCACACUGGGGCCAGGAUUUUCAUACUAAAACGUCACUGACAAUGGGGCUACUUUUCUCCUGAA: 0.316
GUUUGAAAAUGAAGGACUGCCUUGCCAGGAACCCAGUCGGGACUGUGGAGAAAAGAUUUGACUGAUAGAUGUUGGGACUUAGGCAAAGCUUUUGAAAGGCCUCUAACCUA: 1.22
UCGCCACAGCCUACAUAGUGUCUUCCACCUAAUAGAACUUCGAGCCAGAAAGGGGCAUGAGGGCUCUUGCGAGACUGAAGUGCUAUCUUCUCUGGACUAGAGAGAAGAGG: 0.569
UGAGGAGGCAGGCGGCUGCUAGUUGUGGCCCUUCCUGGAAGGAGAGGCCUGCAGGGCUCGACCCUGUGGGUUUCUGUCCCCAGGGAGCAGACUGUGCGGCACCCAGGCCC: 0.26
UGUGUAUAUAGUAUUCUCGAGAUGAGCGUAUGUGUGUCUGUUUAAAAGUCACCUUGUUUCCUACAUGAUUUUAGUCAUACCCAAACGUCCUCAGAAUCCCUACAUCCUGC: 0.301
GAGAUGUUUUUGUUGCAUUGUGUUCUCAUAGCCUAUGCACAUCCUUAUGUUCUUCUAAGUAAUGCCUAUGACCCAAUGCAACUAGGCAGUAAGUAUCCACGACUCCAACC: 0.35
ACGCAAGGACAGGGUACAAACUUAGCUGGAAGUCUGCCCAGGCUGAAUGAUCUCUUCCCUAGAGUUGAUUGUCGGGUACACAGUGUGAACCCCCGAAGACGGAACCUCAC: 0.606
